Experimental data from different studies.
Each line is one published result; not all experiments were run side by side. Numbers after ± are the reported error.

SMILES | test | test system | setting | tissue uptake
CCCC[C@@H]1NC(=O)[C@@H](NC(=O)[C@H](CCC(=O)O)NC(=O)CNC(=O)CN2CCN(CC(=O)O)CCN(CC(=O)O)CCN(CC(=O)O)CC2)CCCCNC(=O)C[C@@H](C(N)=O)NC(=O)[C@H](C(C)C)NC(=O)[C@@H]2CCCN2C(=O)[C@H](CCCNC(=N)N)NC(=O)CNC(=O)[C@H](Cc2c[nH]c3ccccc23)NC(=O)[C@H](CCCNC(=N)N)NC(=O)[C@@H](Cc2ccccc2)NC(=O)[C@H](Cc2c[nH]cn2)NC(=O)[C@H](CCC(=O)O)NC1=O [gallium-67 labelled] |  | C57 mice with B16/F1 melanoma, blood | intravenous, 24 h | 0.15 ± 0.11 %ID/g
CCCC[C@H](NC(=O)CNC(=O)CNC(=O)CN1CCN(CC(=O)O)CCN(CC(=O)O)CCN(CC(=O)O)CC1)C(=O)N[C@H]1CC(=O)NCCCC[C@@H](C(N)=O)NC(=O)[C@H](Cc2c[nH]c3ccccc23)NC(=O)[C@H](CCCNC(=N)N)NC(=O)[C@@H](Cc2ccccc2)NC(=O)[C@H](Cc2c[nH]cn2)NC1=O [copper-64 labelled] |  | female C57 mouse, B16/F1 melanoma, skin | intravenous, 0.037 MBq, 24 h | 0.46 ± 0.4 %ID/g
CN(C)c1ccc(-c2nc3ccc(OCCCCCN4CCN5CCN(CC4)CC(=O)[O][Al]([18F])[O]C(=O)C5)cc3s2)cc1 |  | ICR mouse, liver | intravenous, 60 min | 57.2 ± 3.7 %ID/g
O=C(O)C1CN(Cc2ccc(-c3noc(-c4ccc(OCC[18F])c(C(F)(F)F)c4)n3)cc2)C1 |  | male Sprague-Dawley rat, liver | intravenous, 5 min | 6.08 ± 1.13 %ID/g
C[C@H](CN(C)Cc1ccccc1)NC(=O)c1ccc(-c2noc(C(F)(F)[18F])n2)cc1 | PET imaging | female Sprague-Dawley rats, cerebellum | intravenous, 60 min | 0.76 ± 0.18 SUV
CCCC[C@H](NC(=O)CNC(=O)CNC(=O)CN1CCN(CC(=O)O)CCN(CC(=O)O)CC1)C(=O)N[C@H]1CC(=O)NCCCC[C@@H](C(N)=O)NC(=O)[C@H](Cc2c[nH]c3ccccc23)NC(=O)[C@H](CCCNC(=N)N)NC(=O)[C@@H](Cc2ccccc2)NC(=O)[C@H](Cc2c[nH]cn2)NC1=O [gallium-67 labelled] |  | female C57 mice, B16/F1 melanoma, muscle | intravenous, 0.037 MBq, 24 h | 0.99 ± 0.56 %ID/g
CCCC[C@H](NC(=O)CNC(=O)CNC(=O)CN1CCN(CC(=O)O)CCN(CC(=O)O)CCN(CC(=O)O)CC1)C(=O)N[C@H]1CC(=O)NCCCC[C@@H](C(N)=O)NC(=O)[C@H](Cc2c[nH]c3ccccc23)NC(=O)[C@H](CCCNC(=N)N)NC(=O)[C@@H](Cc2ccccc2)NC(=O)[C@H](Cc2c[nH]cn2)NC1=O [lead-203 labelled] |  | C57 mouse, spleen | intravenous, 0.056 MBq, 4 h | 0.26 ± 0.2 %ID/g
O=C([O-])CN1CCN(CC(=O)[O-])CCN(CC(=O)NCCc2ccc3c(c2)C2C=CCC2C(c2cc4c(cc2Br)OCO4)N3)CCN(CC(=O)[O-])CC1.[111In+3] (stereo not shown) |  | mouse, Hec50 endometrial tumour, adrenals | 0.5 h post injection | 7.11 ± 0.51 %ID/g
CCCC[C@H](NC(=O)CNC(=O)CNC(=O)CN1CCN(CC(=O)O)CCN(CC(=O)O)CC1)C(=O)N[C@H]1CC(=O)NCCCC[C@@H](C(N)=O)NC(=O)[C@H](Cc2c[nH]c3ccccc23)NC(=O)[C@H](CCCNC(=N)N)NC(=O)[C@@H](Cc2ccccc2)NC(=O)[C@H](Cc2c[nH]cn2)NC1=O [copper-64 labelled] |  | female C57 mouse, B16/F1 melanoma, bone | intravenous, 0.037 MBq, 2 h | 0.27 ± 0.05 %ID/g
CC(C)[C@H](NC(=O)[C@@H]1CCCN1C(=O)[C@H](CCCNC(=N)N)NC(=O)[C@H](CS)NC(=O)[C@H](Cc1c[nH]c2ccccc12)NC(=O)[C@H](CCCNC(=N)N)NC(=O)[C@@H](Cc1ccccc1)NC(=O)[C@H](Cc1c[nH]cn1)NC(=O)[C@H](CCC(=O)O)NC(=O)[C@H](CS)NC(=O)[C@H](CS)NC(=O)CNC(=O)[C@@H]1CC(=O)N[C@@H](CCCNC(=N)N)C(=O)NCC(=O)N[C@@H](CC(=O)O)C(=O)N[C@H](Cc2ccc(O)cc2)C(=O)N1)C(N)=O [technetium-99m labelled] |  | C57 mouse, female, B16/F1 melanoma, bone | intravenous, 0.037 MBq, 4 h | 0.5 ± 0.3 %ID/g

A few entries again:
SMILES | test | test system | setting | tissue uptake
CCCC[C@H](NC(=O)CNC(=O)CNC(=O)CN1CCN(CC(=O)O)CCN(CC(=O)O)CC1)C(=O)N[C@H]1CC(=O)NCCCC[C@@H](C(N)=O)NC(=O)[C@H](Cc2c[nH]c3ccccc23)NC(=O)[C@H](CCCNC(=N)N)NC(=O)[C@@H](Cc2ccccc2)NC(=O)[C@H](Cc2c[nH]cn2)NC1=O [copper-64 labelled] |  | female C57 mouse, B16/F1 melanoma, bone | intravenous, 0.037 MBq, 2 h | 0.27 ± 0.05 %ID/g
